Measurements of several laboratories.
Each line is one published result; not all experiments were run side by side.
AMY2: Pancreatic alpha-amylase (AMY2, Sus scrofa, UniProt P00690)
Chain of UniProt P00690 (whole entry, looked up): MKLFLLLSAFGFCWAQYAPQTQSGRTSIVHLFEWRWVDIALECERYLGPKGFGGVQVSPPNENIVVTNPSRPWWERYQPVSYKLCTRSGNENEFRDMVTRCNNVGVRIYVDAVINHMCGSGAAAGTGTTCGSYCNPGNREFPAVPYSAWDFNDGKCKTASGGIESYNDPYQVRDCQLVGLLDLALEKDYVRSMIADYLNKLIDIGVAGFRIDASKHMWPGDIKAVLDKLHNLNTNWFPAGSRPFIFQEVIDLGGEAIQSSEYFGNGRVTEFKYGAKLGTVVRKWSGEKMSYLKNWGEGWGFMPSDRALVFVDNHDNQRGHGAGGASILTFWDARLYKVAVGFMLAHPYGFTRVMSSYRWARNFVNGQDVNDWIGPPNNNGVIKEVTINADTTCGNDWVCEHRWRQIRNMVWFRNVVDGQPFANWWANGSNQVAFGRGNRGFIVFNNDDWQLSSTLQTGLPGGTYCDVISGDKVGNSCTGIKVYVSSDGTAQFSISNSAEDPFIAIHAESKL
SLC6A2: Sodium-dependent noradrenaline transporter (SLC6A2, Homo sapiens, UniProt P23975)
Chain of UniProt P23975 (whole entry, looked up): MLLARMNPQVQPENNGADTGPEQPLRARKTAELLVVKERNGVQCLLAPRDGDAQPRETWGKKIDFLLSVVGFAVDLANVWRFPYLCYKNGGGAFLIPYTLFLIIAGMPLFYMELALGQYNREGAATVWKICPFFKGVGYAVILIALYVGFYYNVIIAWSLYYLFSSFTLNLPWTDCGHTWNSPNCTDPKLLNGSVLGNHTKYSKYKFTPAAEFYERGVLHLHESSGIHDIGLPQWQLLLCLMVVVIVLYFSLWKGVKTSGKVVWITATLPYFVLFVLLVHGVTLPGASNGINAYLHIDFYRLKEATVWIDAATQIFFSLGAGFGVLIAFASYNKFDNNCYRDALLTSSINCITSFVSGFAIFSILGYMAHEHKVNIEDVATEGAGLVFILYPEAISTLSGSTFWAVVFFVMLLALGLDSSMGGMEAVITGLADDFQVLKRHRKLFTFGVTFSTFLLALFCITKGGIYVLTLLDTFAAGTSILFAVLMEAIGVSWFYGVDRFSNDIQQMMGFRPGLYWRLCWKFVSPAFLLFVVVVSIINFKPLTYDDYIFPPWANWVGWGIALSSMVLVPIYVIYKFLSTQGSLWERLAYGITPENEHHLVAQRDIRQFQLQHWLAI
rep papain-like protease: Replicase polyprotein 1ab, papain-like protease (rep, Porcine epidemic diarrhea virus, UniProt P0C6Y4)
NT5E: 5'-nucleotidase (NT5E, Homo sapiens, UniProt P21589)
Chain of UniProt P21589 (whole entry, looked up): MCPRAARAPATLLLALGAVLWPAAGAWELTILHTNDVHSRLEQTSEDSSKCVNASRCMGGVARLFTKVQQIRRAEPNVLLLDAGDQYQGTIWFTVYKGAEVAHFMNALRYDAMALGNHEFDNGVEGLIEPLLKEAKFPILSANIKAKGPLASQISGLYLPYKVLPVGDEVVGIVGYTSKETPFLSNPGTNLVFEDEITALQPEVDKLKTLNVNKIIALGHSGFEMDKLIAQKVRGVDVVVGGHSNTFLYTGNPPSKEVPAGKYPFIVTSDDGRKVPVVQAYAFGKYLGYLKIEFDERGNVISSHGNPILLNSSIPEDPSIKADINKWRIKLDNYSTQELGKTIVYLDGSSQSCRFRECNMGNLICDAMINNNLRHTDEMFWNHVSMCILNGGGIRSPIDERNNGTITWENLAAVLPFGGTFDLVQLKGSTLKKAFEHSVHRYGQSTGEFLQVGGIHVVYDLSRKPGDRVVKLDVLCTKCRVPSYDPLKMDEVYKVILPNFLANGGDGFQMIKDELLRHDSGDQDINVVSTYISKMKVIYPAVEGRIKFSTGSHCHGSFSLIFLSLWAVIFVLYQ
MAPK3: Mitogen-activated protein kinase 3 (MAPK3, Homo sapiens, UniProt P27361)
Chain of UniProt P27361 (whole entry, looked up): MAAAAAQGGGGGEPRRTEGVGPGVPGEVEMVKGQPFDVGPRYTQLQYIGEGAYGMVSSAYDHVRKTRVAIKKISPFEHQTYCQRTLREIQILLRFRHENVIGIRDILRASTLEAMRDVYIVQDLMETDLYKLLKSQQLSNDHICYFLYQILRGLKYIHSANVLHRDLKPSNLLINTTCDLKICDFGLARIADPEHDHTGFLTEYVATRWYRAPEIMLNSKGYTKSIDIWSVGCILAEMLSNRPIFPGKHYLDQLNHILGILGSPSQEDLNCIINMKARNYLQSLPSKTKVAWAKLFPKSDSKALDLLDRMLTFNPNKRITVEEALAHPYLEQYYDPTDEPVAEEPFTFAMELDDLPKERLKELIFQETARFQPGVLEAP
rep main protease: Replicase polyprotein 1ab, main protease (rep, Porcine epidemic diarrhea virus, UniProt P0C6Y4)
CDK7 with cyclin H: Cyclin-dependent kinase 7, with cyclin H (CDK7, Homo sapiens, UniProt P50613)
Chain of UniProt P50613 (whole entry, looked up): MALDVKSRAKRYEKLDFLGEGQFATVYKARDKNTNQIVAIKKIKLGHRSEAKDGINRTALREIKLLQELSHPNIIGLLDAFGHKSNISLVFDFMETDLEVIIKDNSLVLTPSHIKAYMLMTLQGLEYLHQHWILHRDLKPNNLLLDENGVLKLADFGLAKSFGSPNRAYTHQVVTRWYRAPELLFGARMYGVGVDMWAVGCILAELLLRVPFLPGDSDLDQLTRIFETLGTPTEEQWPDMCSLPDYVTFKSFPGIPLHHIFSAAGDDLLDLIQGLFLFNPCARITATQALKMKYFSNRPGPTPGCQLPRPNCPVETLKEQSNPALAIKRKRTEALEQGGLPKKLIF
PIP4K2C: Phosphatidylinositol 5-phosphate 4-kinase type-2 gamma (PIP4K2C, Homo sapiens, UniProt Q8TBX8)
Chain of UniProt Q8TBX8 (whole entry, looked up): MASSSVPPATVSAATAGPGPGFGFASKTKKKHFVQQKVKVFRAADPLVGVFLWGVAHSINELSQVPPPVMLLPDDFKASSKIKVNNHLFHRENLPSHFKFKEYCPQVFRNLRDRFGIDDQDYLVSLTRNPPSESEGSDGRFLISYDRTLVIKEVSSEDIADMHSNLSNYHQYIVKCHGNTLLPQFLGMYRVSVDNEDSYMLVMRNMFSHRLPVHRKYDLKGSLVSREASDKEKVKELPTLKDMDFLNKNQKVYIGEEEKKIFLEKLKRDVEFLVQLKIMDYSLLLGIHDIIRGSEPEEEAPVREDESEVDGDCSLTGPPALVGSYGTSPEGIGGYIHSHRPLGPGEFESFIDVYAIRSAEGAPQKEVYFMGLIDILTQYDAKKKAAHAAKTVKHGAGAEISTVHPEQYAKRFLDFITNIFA
MAOB: Amine oxidase [flavin-containing] B (MAOB, Homo sapiens, UniProt P27338)
Chain of UniProt P27338 (whole entry, looked up): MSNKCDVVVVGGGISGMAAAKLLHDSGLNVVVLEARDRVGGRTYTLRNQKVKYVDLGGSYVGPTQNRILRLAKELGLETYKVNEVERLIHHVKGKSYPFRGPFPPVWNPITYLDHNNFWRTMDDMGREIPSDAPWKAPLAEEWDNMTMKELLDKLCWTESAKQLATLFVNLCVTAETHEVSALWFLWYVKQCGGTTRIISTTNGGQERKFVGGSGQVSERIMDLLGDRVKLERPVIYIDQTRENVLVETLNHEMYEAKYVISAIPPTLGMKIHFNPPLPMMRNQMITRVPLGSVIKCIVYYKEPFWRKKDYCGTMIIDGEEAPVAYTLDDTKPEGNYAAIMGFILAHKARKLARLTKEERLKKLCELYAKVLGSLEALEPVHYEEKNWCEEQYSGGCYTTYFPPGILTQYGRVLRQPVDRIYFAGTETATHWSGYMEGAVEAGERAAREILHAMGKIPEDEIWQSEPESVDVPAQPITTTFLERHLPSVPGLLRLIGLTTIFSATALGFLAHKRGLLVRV
SLC22A11: Solute carrier family 22 member 11 (SLC22A11, Homo sapiens, UniProt Q9NSA0)
Chain of UniProt Q9NSA0 (whole entry, looked up): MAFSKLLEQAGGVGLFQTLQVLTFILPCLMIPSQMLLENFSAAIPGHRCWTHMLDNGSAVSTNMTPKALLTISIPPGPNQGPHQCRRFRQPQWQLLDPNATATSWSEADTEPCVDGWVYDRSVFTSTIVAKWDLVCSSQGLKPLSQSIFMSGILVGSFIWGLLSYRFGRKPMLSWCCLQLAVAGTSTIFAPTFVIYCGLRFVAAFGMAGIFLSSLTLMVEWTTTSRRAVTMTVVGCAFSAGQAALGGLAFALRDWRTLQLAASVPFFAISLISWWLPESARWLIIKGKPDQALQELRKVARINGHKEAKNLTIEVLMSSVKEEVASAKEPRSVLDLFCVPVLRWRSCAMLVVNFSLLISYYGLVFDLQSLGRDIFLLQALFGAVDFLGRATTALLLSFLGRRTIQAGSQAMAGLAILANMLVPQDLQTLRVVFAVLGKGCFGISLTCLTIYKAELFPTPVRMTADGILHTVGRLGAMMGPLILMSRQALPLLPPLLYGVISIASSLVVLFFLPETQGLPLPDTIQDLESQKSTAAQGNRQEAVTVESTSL
Chain of UniProt O14757 (whole entry, looked up): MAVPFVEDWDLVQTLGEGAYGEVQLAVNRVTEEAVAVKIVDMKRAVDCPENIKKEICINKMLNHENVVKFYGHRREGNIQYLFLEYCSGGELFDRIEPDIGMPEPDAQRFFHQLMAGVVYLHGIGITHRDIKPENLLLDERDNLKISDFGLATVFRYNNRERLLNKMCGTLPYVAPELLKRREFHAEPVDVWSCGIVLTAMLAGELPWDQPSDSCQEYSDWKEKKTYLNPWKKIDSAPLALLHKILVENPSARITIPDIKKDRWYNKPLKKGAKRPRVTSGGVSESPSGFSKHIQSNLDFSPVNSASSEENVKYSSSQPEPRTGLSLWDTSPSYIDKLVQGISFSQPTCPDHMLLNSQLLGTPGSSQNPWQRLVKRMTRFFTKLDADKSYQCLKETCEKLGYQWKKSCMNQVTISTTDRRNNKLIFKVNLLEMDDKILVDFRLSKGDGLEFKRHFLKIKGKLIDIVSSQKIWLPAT

Structure (SMILES) | target | test | setting | inhibition
Cc1cccc(N(O)N=Nc2ccc(S(=O)(=O)Nc3cc(C)on3)cc2)c1 | AMY2 | enzyme activity, inhibitor | 180 µg/mL | 47.4%
OC[C@@]12C[C@@H]1[C@@H](n1cnc3c(NC(C4CCC4)C4CCC4)nc(C#Cc4ccc(Cl)s4)nc31)[C@H](O)[C@@H]2O | SLC6A2 | ligand displacement, radioligand | 10 µM | 44%
Cc1cc(NS(=O)(=O)c2ccc(N=NN(O)c3ccccc3)cc2)no1 | AMY2 | enzyme activity, inhibitor | 20 µg/mL | 15.8%
Cc1cc(O)c(-c2ccc([C@@H](C)CN(C)C)cc2)c2c1[nH]c(=O)c1sccc12 | Tyrosine-protein kinase JAK1, JH1 (JAK1, Homo sapiens, UniProt P23458) | enzyme activity, inhibitor | 0.1 µM | 0.218%
COc1cc(CNC(=O)c2ccc(Cl)s2)cc(Br)c1OC | rep papain-like protease | enzyme activity, inhibitor, FRET | 10 µM | 25.2%
COC(=O)c1ccc(NC(=O)c2sc3nc(C)cc(-c4ccccc4)c3c2N)cc1 | NT5E | enzyme activity, inhibitor | 10 µM | -20%
CCN(O)N=Nc1ccc(S(=O)(=O)Nc2onc(C)c2C)cc1 | AMY2 | enzyme activity, inhibitor | 240 µg/mL | 52.6%
CC[C@H](C)[C@H](NC(=O)[C@H](CCC(N)=O)NC(=O)[C@H](CC(C)C)NC(=O)[C@H](CCSC)NC(=O)[C@H](CCCCN)NC(=O)[C@H](CO)NC(=O)[C@H](CO)NC(=O)[C@H](CCSC)NC(=O)[C@H](CC(C)C)NC(=O)[C@H](CC(N)=O)NC(=O)[C@@H](NC(=O)[C@@H](NC(=O)[C@H](CO)NC(=O)[C@H](CC(C)C)NC(=O)[C@H](CS)NC(=O)[C@H](CCCNC(=N)N)NC(=O)[C@H](CC(=O)O)NC(=O)[C@H](Cc1c[nH]c2ccccc12)NC(=O)[C@H](Cc1ccccc1)NC(=O)[C@H](C)NC(=O)[C@H](CCC(=O)O)NC(=O)[C@@H](N)CCCCN)C(C)C)[C@@H](C)CC)C(=O)N[C@@H](CC(N)=O)C(=O)N[C@@H](C)C(=O)O | MAPK3 | enzyme activity, inhibitor, radiometric | 500 µM | 25%
CN1CC(Oc2cnc(C#N)cc2-c2ccn3nc(NC(=O)C4CC4)cc3c2)C1 | CHEK1 (Homo sapiens, UniProt O14757) | enzyme activity, inhibitor | 1 µM | -4%
O=C(NCc1cc(O)c(O)c(Br)c1)c1ccno1 | rep main protease | enzyme activity, inhibitor, FRET | 10 µM | 107%
Cc1cc(C)c2c(N)c(C(=O)NCc3ccccc3)sc2n1 | NT5E | enzyme activity, inhibitor | 10 µM | -22%
CC1(C)[C@@H](O)CC[C@]2(C)[C@H]3C(=O)C=C4[C@H]5C[C@@](C)(C(=O)O)CC[C@]5(C)CC[C@@]4(C)[C@]3(C)CC[C@@H]12 | CDK7 with cyclin H | enzyme activity, inhibitor, ADP detection | 10 µM | -9.7%
Nc1c(C(=O)Nc2ccon2)sc2nc(-c3ccccc3)cc(C(F)(F)F)c12 | NT5E | enzyme activity, inhibitor | 10 µM | 62%
COc1cc(CNC(=O)c2cccc(OC(C)=O)c2C)cc(Br)c1OC | rep main protease | enzyme activity, inhibitor, FRET | 10 µM | 8.43%
CCOC(=O)[C@@]12C[C@@H]1[C@@H](n1cnc3c(NCCCCCc4ccccc4)nc(I)nc31)[C@H](O)[C@@H]2O | SLC6A2 | ligand displacement, radioligand | 10 µM | 61%
Cc1cc(NS(=O)(=O)c2ccc(N=NN(C)O)cc2)no1 | AMY2 | enzyme activity, inhibitor | 300 µg/mL | 68.4%
CCCCC(=O)Nc1ccc(-c2ccc3ncn(CC4CC4)c(=O)c3c2)cn1 | PIP4K2C | binding, competition with immobilised ligand | 0.5 µM | 99.7%
NC/C(=C\F)COc1cccc(Cn2c(=S)[nH]c(=O)c3[nH]cnc32)c1 | SLC6A2 | ligand displacement, radioligand | 10 µM | < 50%
COc1ccc(C(=O)NCc2cc(O)c(O)c(Br)c2)cc1OC | rep papain-like protease | enzyme activity, inhibitor, FRET | 10 µM | 56.5%
CC[C@H](C)[C@H](NC(=O)[C@H](CCC(N)=O)NC(=O)[C@@H](NC(=O)[C@H](CCSC)NC(=O)[C@H](CCCCN)NC(=O)[C@H](CO)NC(=O)[C@@H](NC(=O)[C@H](CCSC)NC(=O)[C@H](CC(C)C)NC(=O)[C@H](CC(N)=O)NC(=O)[C@@H](NC(=O)[C@@H](NC(=O)[C@H](CO)NC(=O)[C@H](CC(C)C)NC(=O)[C@H](C)NC(=O)[C@H](CCCNC(=N)N)NC(=O)[C@H](CCC(=O)O)NC(=O)[C@H](Cc1ccc(O)cc1)NC(=O)[C@H](Cc1ccccc1)NC(=O)[C@H](C)NC(=O)[C@H](CC(N)=O)NC(=O)[C@@H](N)CCCCN)[C@@H](C)CC)[C@@H](C)CC)[C@@H](C)O)C(C)C)C(=O)N[C@@H](CC(N)=O)C(=O)N[C@H](C(=O)O)C(C)C | MAPK3 | enzyme activity, inhibitor, radiometric | 500 µM | 54%
CCN(O)N=Nc1ccc(S(=O)(=O)Nc2cc(C)on2)cc1 | AMY2 | enzyme activity, inhibitor | 300 µg/mL | 68.4%
O=C(NCc1ccccc1)c1ccc2c(c1)C(=O)NC2=O | MAOB | enzyme activity, inhibitor | 1 µM | < 5%

Structure (SMILES) | target | test | setting | inhibition
COC(=O)CNC(=O)CSc1nc(C)cc(C)c1C#N | NT5E | enzyme activity, inhibitor | 10 µM | -10%
Cc1ncc([N+](=O)[O-])n1C(=NO)c1ccccc1C(F)(F)F | MARK4 (Homo sapiens, UniProt Q96L34) | enzyme activity, inhibitor | 10 µM | 98.7%
CC(C)C(C(=O)NCc1cc(O)c(O)c(Br)c1)c1ccc(Cl)cc1 (stereo not shown) | rep papain-like protease | enzyme activity, inhibitor, FRET | 10 µM | 31.9%
Cc1cc(C(F)(F)F)c2c(N)c(C(=O)Nc3cccnc3)sc2n1 | NT5E | enzyme activity, inhibitor | 10 µM | 0%
COc1c2occc2c(OC)c2c(=O)cc(C)oc12 | CDK7 with cyclin H | enzyme activity, inhibitor, ADP detection | 10 µM | 10.5%
COC(=O)c1ccc(NC(=O)CSc2nc(C)cc(-c3ccccc3)c2C#N)cc1 | NT5E | enzyme activity, inhibitor | 10 µM | 17%
O=C(NCc1cc(O)c(O)c(Br)c1)c1ccc(OC(F)(F)F)cc1 | rep papain-like protease | enzyme activity, inhibitor, FRET | 10 µM | 75.4%
CCCC(=O)Nc1ccc(-c2ccc3ncn(Cc4ccccc4)c(=O)c3c2)cn1 | PIP4K2C | binding, competition with immobilised ligand | 0.5 µM | 65.6%
Cc1cccc(N(O)N=Nc2ccc(S(=O)(=O)Nc3onc(C)c3C)cc2)c1 | AMY2 | enzyme activity, inhibitor | 60 µg/mL | 26.3%
Cc1cc(=O)c2c(O)cc(O)c(C3CC[N+](C)([O-])CC3O)c2o1 (stereo not shown) | CDK7 with cyclin H | enzyme activity, inhibitor, ADP detection | 10 µM | 25.4%
COc1cc(CNC(=O)c2ccno2)cc(Br)c1OC | rep papain-like protease | enzyme activity, inhibitor, FRET | 10 µM | 3.83%
Cc1noc(NS(=O)(=O)c2ccc(N=NN(O)c3ccccc3)cc2)c1C | AMY2 | enzyme activity, inhibitor | 20 µg/mL | 15.8%
O=C(Nc1ccccc1Cl)c1ccc2c(c1)C(=O)NC2=O | MAOB | enzyme activity, inhibitor | 1 µM | < 5%
CCCC(C)C(=O)Nc1ccc(-c2ccc3ncn(CCC)c(=O)c3c2)cn1 (stereo not shown) | PIP4K2C | binding, competition with immobilised ligand | 0.5 µM | 89%
Cc1cccc(N(O)N=Nc2ccc(S(=O)(=O)Nc3nccs3)cc2)c1 | AMY2 | enzyme activity, inhibitor | 180 µg/mL | 42.1%
Cc1cccc(NC(=O)CSc2nc(C)cc(-c3ccccc3)c2C#N)n1 | NT5E | enzyme activity, inhibitor, HPLC | 10 µM | 98%
CCCn1cnc2ccc(-c3ccc(NC(=O)CC(C)CC)nc3)cc2c1=O (stereo not shown) | PIP4K2C | binding, competition with immobilised ligand | 0.5 µM | 98.4%
CCCOCCN(C(=O)CCl)c1c(CC)cccc1CC | SLC22A11 | transporter uptake, inhibitor | 25 µM | 76.5%
N#Cc1cccc(C(=O)NCc2cc(O)c(O)c(Br)c2)c1 | rep main protease | enzyme activity, inhibitor, FRET | 10 µM | 29.5%
C[C@]12CC[C@@H]3c4ccc(OS(=O)(=O)O)cc4CC[C@H]3[C@@H]1CCC2=O | SLC22A11 | transporter uptake, inhibitor | 25 µM | 87%
COc1ccc(Cl)cc1-c1cc(=O)[nH]c(=S)n1CC(N)=O | Myeloperoxidase (MPO, Homo sapiens, UniProt P05164) | enzyme activity, inhibitor, fluorescence | 10 µM | 98.5%

Some of these lines once more:
Structure (SMILES) | target | test | setting | inhibition
O=C(NCc1cc(O)c(O)c(Br)c1)c1ccc(OC(F)(F)F)cc1 | rep papain-like protease | enzyme activity, inhibitor, FRET | 10 µM | 75.4%
Cc1cc(NS(=O)(=O)c2ccc(N=NN(C)O)cc2)no1 | AMY2 | enzyme activity, inhibitor | 300 µg/mL | 68.4%
Cc1cccc(NC(=O)CSc2nc(C)cc(-c3ccccc3)c2C#N)n1 | NT5E | enzyme activity, inhibitor, HPLC | 10 µM | 98%
O=C(NCc1ccccc1)c1ccc2c(c1)C(=O)NC2=O | MAOB | enzyme activity, inhibitor | 1 µM | < 5%
COc1c2occc2c(OC)c2c(=O)cc(C)oc12 | CDK7 with cyclin H | enzyme activity, inhibitor, ADP detection | 10 µM | 10.5%
